Results pooled from the literature.
Each numbered part is a random draw from the data of one study; scales do not carry over between parts.

Series 1 — technique: RNA Bind-n-Seq; form: RNA; medium: in vitro; concentration: 365 nM; relative to: no-protein control; direction: higher = stronger binding; quantity: RBNS enrichment (R)
Target: RNA binding protein fox-1 homolog 2, RRM domain, GST-SBP tag (RBFOX2, Homo sapiens, UniProt O43251-10, residues 100-194)
Notes: natural RNA segment, single round, ends assumed
Residues (chain): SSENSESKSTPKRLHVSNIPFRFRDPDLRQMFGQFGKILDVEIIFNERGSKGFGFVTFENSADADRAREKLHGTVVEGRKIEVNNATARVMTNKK
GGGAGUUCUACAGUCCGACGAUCCUCUGUCCCAGGUUUUUAGAUCCCACUGAGCCCAGCUGACUGAAAACAAGGACAGUCAGGGUGAAACUUCUUUUGCCAGAAGUGUGGCCUGAGUUGAAUUUCUGGGAGGAUGGAAUUCUCGGGUGCCAA: 0.311
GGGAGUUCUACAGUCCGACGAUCCCAGCAUGGAAAGGUUCAGCUGGAGACAUUUCUGAAACAGACUACUUUACUUUGAAGCAAACGUCUUUUUUUUAAAGAUUGCUUCACCAAUGAUGCUGUCAGAUAUAUCUUGGAAUUCUCGGGUGCCAA: 1.18
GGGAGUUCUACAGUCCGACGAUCUGGGGAAGCUGCCGCCCACGGGCUCUGCCCCUUCCAGCUGGAGCCGCCCGUGCCUCCAGGGGCCAAGAGGAUGAUGUCGUGGCCUCCAUUCUCGUUUCUAUGCAGCCCCAUGGAAUUCUCGGGUGCCAA: 0.456
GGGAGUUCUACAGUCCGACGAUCUUCACUCGCUUCGUCCUAGAUAGUUUAAAUGGGAAUCGGAUCCCCUGGUUGAGAGCUAAGACAACCACCUACCAGUGCCCAUGUCCCUUCCAGCUCACCUUGAGCAGCCUUGGAAUUCUCGGGUGCCAA: 0.224
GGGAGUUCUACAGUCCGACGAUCCAUCUGGCUUUCUCAGCCACUGUUCAUCACCAGGGGUUUUAGGAGGAAGGCUUGGCUCCUGUCUUCCCAGACCCACCAUGCCUGGAGAGGUCAGGAUGGAACUACCUCAUUGGAAUUCUCGGGUGCCAA: 0.326
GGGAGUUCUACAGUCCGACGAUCUCUGCACCCCCAGCAAGAAGGCGAGUUAGUUUUCUAGAGACUUGAAGGAGUCUCCCCCUUCCUGCAUCACCACCUUGGUUUUGUUUUAUUUUGCUUCUUGGUCAAGAAAGUGGAAUUCUCGGGUGCCAA: 0.498
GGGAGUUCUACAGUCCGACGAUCGUAAUGGGAAUUGAUCAGUGCCACCACCCUUGACCCCAACUACCAUCCCAGAUGCCCAGAUUCCAGUCCUGGAGUUUUAUUCUCUCAGCUUGAUCCUUUGACCAAGAAGAUGGAAUUCUCGGGUGCCAA: 0.347
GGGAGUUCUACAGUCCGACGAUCCUUGAAAGGAUUUCCACCAGACUGUCUUGAGUAGUGACUUCUUUGGUGAGGCAAGAAGGAUAUACAUUAUUUUAGAAUCAUUUACUAUUUAAAUGAGACAAUCAUAUUAUUGGAAUUCUCGGGUGCCAA: 0.45
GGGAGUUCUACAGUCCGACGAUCAGGCCACCUGGCCAGGCCUUCUACCUGGGCAGCACCUCUGCCGACGCCGUCCCACCAGCUUCACUCUCUCCGUCUGUUUUUGCAACUAGGUAUUUCUAACGCCAGCACACUGGAAUUCUCGGGUGCCAA: 0.526
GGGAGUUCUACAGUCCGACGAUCAAUUAACUUUCAGUUAUGAUUUCCCAUCGACAUUUUCUUUGCCCUGUUUGUAGCUGAUUGUUGUGUUUUAUAAAUCUUCUGUUAAGGCAGAAGGGUGAUUAUGAGUGGUUUGGAAUUCUCGGGUGCCAA: 0.231
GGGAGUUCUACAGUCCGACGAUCUAAUCUGAUGUAUAAUGUAAUGUUUUUAUUUCAAUUGUUUAUAUGGAUAAUCUGAGCAGGUACAUUUCUGAUUCUGAUUGCUAUCAGCAAUGCCCCAAACUUUCUCAUAAUGGAAUUCUCGGGUGCCAA: 0.486
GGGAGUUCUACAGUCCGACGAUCUGGCCCCUGAGAAUGCCUGUGUUAGUUAAAGACAGAUGGGAUCAAGGCGAGGGCUACAGGCUGAGAGAGCUUGAGCUCAGAGGCUUUUAUGAACCGUUUCCUCUGAGGGCUGGAAUUCUCGGGUGCCAA: 2.01

Series 2 — technique: protein-binding microarray; form: double-stranded DNA, one strand shown; medium: in vitro; concentration: 0.8 µM; notes: whole 60-bp probe, no competitor; direction: higher = stronger binding; quantity: fluorescence intensity
Target: Centromere-binding protein 1, full length, N-terminal tag (CBF1, Saccharomyces cerevisiae, UniProt P17106, residues 1-351)
Sequence of UniProt P17106 (whole entry, looked up): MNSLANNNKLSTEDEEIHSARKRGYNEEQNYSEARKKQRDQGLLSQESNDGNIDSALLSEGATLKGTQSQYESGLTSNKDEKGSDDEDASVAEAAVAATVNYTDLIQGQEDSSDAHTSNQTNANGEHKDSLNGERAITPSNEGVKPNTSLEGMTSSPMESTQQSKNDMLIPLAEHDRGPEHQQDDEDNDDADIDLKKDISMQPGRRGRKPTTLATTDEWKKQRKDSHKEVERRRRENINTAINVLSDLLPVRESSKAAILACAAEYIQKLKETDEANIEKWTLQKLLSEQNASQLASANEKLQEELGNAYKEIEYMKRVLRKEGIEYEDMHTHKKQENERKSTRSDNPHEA
GAAAACGAGATTTGCTAGGTGATGACGACGGTGTAGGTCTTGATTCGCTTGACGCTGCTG: 534 a.u.
GAAGAAAAATAGCTGCACGCTTTTCCAGGAATATAGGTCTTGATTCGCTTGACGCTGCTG: 586 a.u.
GAAAAAAAAAGACGCACCGTGACTTCAAGAGCTTAGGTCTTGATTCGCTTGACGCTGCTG: 827 a.u.
CTACTACAACTTTGGCGCGTGAGCCAAGTGTCTTTCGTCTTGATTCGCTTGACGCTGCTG: 559 a.u.
CTATGGATTGCCAGAAACGTGACGTGAAATACCTTCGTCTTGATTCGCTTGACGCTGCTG: 3810 a.u.
CCTAACTACTATATTCGTGTGCCATAGCTTCGTACAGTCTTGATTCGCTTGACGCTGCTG: 513 a.u.
GAATACGCACAAATGCACATGTATACATACGCATAGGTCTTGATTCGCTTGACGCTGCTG: 640 a.u.
CTAGAATAGACCGATAAGGTCACCTGTTAGTAATTCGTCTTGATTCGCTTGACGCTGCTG: 3320 a.u.
CTATATTGTTGAGATCATATGATGATAACGCAATTCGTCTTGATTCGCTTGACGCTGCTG: 899 a.u.
CCTAACTACTATACTGGTGATTTATAGCTTCGTACAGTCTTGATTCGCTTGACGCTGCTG: 531 a.u.
GAACTACACGCGCACATGACGATAAAACTGGCCTAGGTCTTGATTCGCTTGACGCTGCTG: 2360 a.u.
GAATGACCATGACTTCTCGTGCACCTTACAGGATAGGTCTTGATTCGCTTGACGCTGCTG: 603 a.u.
CTAAAAAAAAAAAGTCATGTGACTTGAATATTATTCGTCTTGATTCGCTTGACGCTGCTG: 15200 a.u.
GAAGTTTTATGTCCCCACGTTACACCGCATGTGTAGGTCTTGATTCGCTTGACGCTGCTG: 614 a.u.
CTATTGAAATGATATGATCAGTTGAGAAAAAGCTTCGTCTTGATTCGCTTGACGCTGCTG: 536 a.u.
CTAGATAGTTATTGTTGCACCTGAGGCAAAAGCTTCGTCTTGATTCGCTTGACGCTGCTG: 558 a.u.

Series 3 — technique: RNA Bind-n-Seq; form: RNA; medium: in vitro; concentration: 200 nM; notes: whole 134-nt RNA, ends assumed; with: 150 mM LiCl; relative to: input library; direction: higher = stronger binding; quantity: log2 enrichment; all molecules: 7-deaza-guanosine replaces G
Target: Ras GTPase-activating protein-binding protein 1, full length (G3BP1, Homo sapiens, UniProt Q13283)
Sequence of UniProt Q13283 (whole entry, looked up): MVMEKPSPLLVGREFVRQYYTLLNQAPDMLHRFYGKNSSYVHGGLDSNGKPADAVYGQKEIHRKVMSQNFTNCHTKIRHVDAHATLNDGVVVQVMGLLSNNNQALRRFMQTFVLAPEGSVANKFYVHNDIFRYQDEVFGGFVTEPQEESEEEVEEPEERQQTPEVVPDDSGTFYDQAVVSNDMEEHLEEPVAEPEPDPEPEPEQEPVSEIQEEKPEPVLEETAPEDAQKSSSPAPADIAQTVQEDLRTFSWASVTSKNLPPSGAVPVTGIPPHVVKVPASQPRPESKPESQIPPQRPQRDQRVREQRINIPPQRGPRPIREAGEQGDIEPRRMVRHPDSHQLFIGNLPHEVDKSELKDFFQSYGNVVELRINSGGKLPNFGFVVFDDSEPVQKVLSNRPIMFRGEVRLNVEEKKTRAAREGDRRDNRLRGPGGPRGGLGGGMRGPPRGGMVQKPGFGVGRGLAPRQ
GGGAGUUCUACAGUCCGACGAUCGCAGGAAGUAAAAACAAAUGGAAAUGCUUCGGAUAGUGGCAGGGAAAGGGGUUGCUAAGGAAAGGGUGGGAUGGGAGUGGGUAAAGAGUUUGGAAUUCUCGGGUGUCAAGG: 0.0161
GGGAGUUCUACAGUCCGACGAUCUCCUGUGCUACACAUCGUAUGUACCGAAUCGGGGAAAAAGGGGAAAAAGGGGAAAGGGGAAAGUAUUAUGUUACGCCGUUCGGAUCUGCAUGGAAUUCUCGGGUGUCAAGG: 0.0563
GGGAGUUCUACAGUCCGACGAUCACCAUGCAGGUGGGCAUCUUUGGGAAGUGAAACAAGGGGGGGAUAGGGAGGGGGGUAACACUUUGGGAACAGGUGGUCCCAGGUCGUUUCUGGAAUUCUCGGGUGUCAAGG: 0.551
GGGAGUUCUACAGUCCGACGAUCUCAAGUCCUGUGCUACACAUCGUAUGUACCGAAUCGGCCCGGGCCCGGCCCGGGGAAAGUAUUAUGUUACGCCGUUCGGAUCUGCACUUCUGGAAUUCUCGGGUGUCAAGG: -0.213
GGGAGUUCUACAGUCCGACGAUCGCAGGAAGUAAAAACAAAUGGAAAUGCUUCGGAUAGUGGCCGGGGUGGGGGUUGCUAAGGAAAGGGUGGGAUGGGAGUGGGUAAAGAGUUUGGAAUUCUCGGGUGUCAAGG: 0.238
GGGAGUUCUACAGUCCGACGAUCGUCCUGUGCUACACAUCGUAUGUACCGAAUCGGAAAAAAAGGUUUUUUUGGAAAAAGGAAAGUAUUAUGUUACGCCGUUCGGAUCUGCACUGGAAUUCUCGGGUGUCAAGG: -2.41
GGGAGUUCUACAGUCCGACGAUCUCUUCAGAGGCCCCACAGUAUCAAAUAUCCGCCUGGCUGGAUUAGAGUAUGUUCUGCACUUCACUGCACUGAAUGGGAAGAUUUACUUUCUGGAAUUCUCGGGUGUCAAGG: 0.687
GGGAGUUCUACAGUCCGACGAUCCCUGUGCUACACAUCGUAUGUACCGAAUCGGGGAAAGGGGUUUUUUUGGGGUUUUUGGGGAAAGUAUUAUGUUACGCCGUUCGGAUCUGCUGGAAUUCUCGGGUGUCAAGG: 0.34
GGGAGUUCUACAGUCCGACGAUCAGUCCUGUGCUACACAUCGUAUGUACCGAAUCGGGAGGGUUUUUGGGUUUUUUUGGGAAAGUAUUAUGUUACGCCGUUCGGAUCUGCACUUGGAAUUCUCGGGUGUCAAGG: -0.585
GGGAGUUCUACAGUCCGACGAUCCAAGUCCUGUGCUACACAUCGUAUGUACCGAAUCAAACCCAAAUUUAAAUUUAAAAAAGUAUUAUGUUACGCCGUUCGGAUCUGCACUUCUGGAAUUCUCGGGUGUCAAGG: 0.641
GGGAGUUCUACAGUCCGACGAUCGUCCUGUGCUACACAUCGUAUGUACCGAAUCGGAAAAAGGUUUUUUUGGUUUUUUUGGAAAGUAUUAUGUUACGCCGUUCGGAUCUGCACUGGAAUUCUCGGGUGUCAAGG: -2.44

Series 4 — technique: protein binding microarray; form: double-stranded DNA, one strand shown; medium: in vitro; concentration: not given; relative to: not given; direction: higher = stronger binding; quantity: E-score
Target: Histone acetyltransferase KAT6A, winged helix 2, GST fusion (KAT6A, Homo sapiens, UniProt Q92794, residues 85-181)
Notes: 8-mer, flanks averaged, mean of 2 arrays, mostly near background
Target sequence (chain): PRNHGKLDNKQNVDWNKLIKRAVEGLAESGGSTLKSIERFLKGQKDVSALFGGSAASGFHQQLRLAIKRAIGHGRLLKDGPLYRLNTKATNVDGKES
AAGCTTTC: 0.0931
CCGACGCG: 0.291
CCATCTAC: -0.168
TCGGGACA: -0.0384
GCCCAAGA: 0.00271
GCGAACAA: 0.26
ATTACCTC: -0.0352
AGAGCCAC: 0.0411
GCTCCGCC: 0.287
ACAATTAT: -0.0171
ATCATCCA: -0.0665
AGCTCACC: 0.0688
AAGATTAT: -0.149
AATCACAG: 0.0158
CCTGCGTA: 0.133
CGTCACAC: -0.0159
ACCTCTTA: -0.0498
GTCCGCAC: 0.213
TCCATCAA: 0.0774
GGGCAGAC: 0.0615
CACCACAG: 0.118

Some of these lines once more (series 4):
AAGATTAT: -0.149
CCTGCGTA: 0.133
GTCCGCAC: 0.213
AGAGCCAC: 0.0411
TCCATCAA: 0.0774
AGCTCACC: 0.0688
